Results of several laboratories.
Each numbered part is a random draw from the data of one study; scales do not carry over between parts. Substitutions count along the parent as printed.

Study 1
Target: RNA binding protein fox-1 homolog 2, RRM domain, GST-SBP tag (RBFOX2, Homo sapiens, UniProt O43251-10, residues 100-194)
Method: RNA Bind-n-Seq
Molecule type: RNA
Medium: in vitro
Concentration: 365 nM
Setting: natural RNA segment, single round, ends assumed
Relative to: no-protein control
Reading: higher = stronger binding
Target sequence (chain): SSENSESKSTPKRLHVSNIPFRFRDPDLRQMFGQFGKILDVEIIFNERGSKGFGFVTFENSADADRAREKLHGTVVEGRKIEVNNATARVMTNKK
Oligonucleotide | RBNS enrichment (R)
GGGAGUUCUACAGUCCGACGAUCAGGUUGUUGCUUUAUUUUUUUAAGGCUCUGGAGUGUUGUGUAUGGUUUCUUUUCACAUCCCAGCCUCCCAUGGGCACUUCUAAGAAGAGAGGGGAUUUCUUGGAAAAGGAUGGAAUUCUCGGGUGCCAA | 0.3
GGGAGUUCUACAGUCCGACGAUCACUCUAGGCAUGAGAGCACCGGGGACCAAGCCAUGUGGCUUUUUUUUUUUUUUUUUAAACUUUGCCUUCCUGGACAACUUAAGGUGUGUCUCUUAAUUCUCUCUUACAGUUGGAAUUCUCGGGUGCCAA | 0.623
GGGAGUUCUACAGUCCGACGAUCCCUCCCCGCGGCAGCGAUGGCCCGAGCCAUGAGAGUGAGGACUUUCCGCGCCCAUUGGUGACCCUUCCAGGCAGACAGCCUCAGCAGCGCCCCUGGUGGACAGGAUGGUUUGGAAUUCUCGGGUGCCAA | 0.19
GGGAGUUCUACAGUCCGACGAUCUAUAAAAAUAUUUAUCUUAGAAUUUGAGAUGUUCAUAGCAUGUUUUAUUACAUUGAAGAAACUAAAACAUAAAUGAAAAGAAACACUAGGUUCCUGCACUUUUUGGUAACUGGAAUUCUCGGGUGCCAA | 44
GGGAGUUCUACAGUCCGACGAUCCAACCAAGAUCUGCCUGACUAAAAGAAGCCACCUCAGCGCAGUGGAACGGGGCCCAGGGGGAGGCAGGAGAGGAGGGUUCCGGUCCCAUGUCACCUUCUCAUUUGCUGUGUGGAAUUCUCGGGUGCCAA | 0.771
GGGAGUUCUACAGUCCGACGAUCUAACACUUACCGACUUUUUUUGGUUUGGAAACAUAUUACCACGUCUUAAUAGGAUGGUGCCCAUAUAGGUGAGCAUCCCUUUAGAUCAUGGGAACCAGCAGACUGCAUUCUGGAAUUCUCGGGUGCCAA | 0.375
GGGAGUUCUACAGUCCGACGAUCAGAUGUUGCAGGACCUUGUUUUAAAAUCAACUCCCUUCUCUCCCAGCGGGGGGCCUCUUCCUUCCUGGUGCUGGUCAGGGGGCCUGGAAACAAACUUUCUGAGGCUGGGUUGGAAUUCUCGGGUGCCAA | 0.342
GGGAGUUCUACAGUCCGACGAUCCAGAAUUUGUGCUUUGGUUUGCCCUGCGCAGCCUUGGAGCAUCAUAAGCCUGGCUGGUGGGCAUAGUUAUUCUCAGCAUUGUGGUGGCAAAUGACGUUGGUUCUAGAGACUGGAAUUCUCGGGUGCCAA | 3.59

Study 2
Target: Histone acetyltransferase KAT6A, both winged helices, GST fusion (KAT6A, Homo sapiens, UniProt Q92794, residues 1-181)
Method: protein binding microarray
Molecule type: double-stranded DNA, one strand shown
Medium: in vitro
Concentration: not given
Setting: 8-mer, flanks averaged, mean of 2 arrays, mostly near background
Relative to: not given
Reading: higher = stronger binding
Target sequence (chain): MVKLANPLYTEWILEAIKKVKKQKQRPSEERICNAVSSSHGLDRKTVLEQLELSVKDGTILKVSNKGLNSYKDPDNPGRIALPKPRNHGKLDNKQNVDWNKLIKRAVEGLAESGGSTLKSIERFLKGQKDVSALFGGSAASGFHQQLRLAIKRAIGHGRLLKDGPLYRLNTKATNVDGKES
Oligonucleotide | E-score
CCTTATAC | -0.114
CGGTCCAG | 0.1
CAAGCACG | 0.0912
AATATCGG | 0.106
AACGTCAG | -0.11
ACCCCACC | -0.0202
CTGCGTTC | 0.0306
AACATGTC | 0.061
ACGTACGG | 0.234
CGTACCGA | 0.0785
ACAGGTGC | -0.0908
TCGAGTCA | -0.0962
CGTAGCAA | -0.0238
GACGCCGA | 0.176
AGGTTGGC | -0.193
ACGCCCAA | -0.181
GGAAACGA | -0.0278
CGATCGCA | 0.149
CAGCAACC | -0.127
GAACTATA | -0.0248
AGACGATA | -0.0438
CATGGTTC | 0.0627
TCTGGCCA | -0.225
ATCAGGAC | -0.0285
CCGAAGTC | -0.0111

Study 3
Target: CCNE1, cyclin fold, Cln2 fusion (human)
Method: yeast growth competition, sequencing
Medium: yeast
Setting: weak parent motif
Relative to: not given
Reading: higher = stronger binding
Starting sequence: RB1 docking peptide (human); PKPLKKLRFDIEG
Change | normalised enrichment score
R8Y | 0.281
L7H | 0.199
K6L | 0.369
L7D | -0.741
K6H | 0.389
F9D | -0.0302
L4E | -0.336
K5F | 0.0897
F9H | -0.208
I11D | -0.242
F9N | 0.936
I11P | -0.459
K5R F9L | -0.138
L4I | 0.807
D10N | 0.227
G13I | 0.45
R8N | 0.336
I11G | 0.414
K2Q | 0.233
E12R | -0.0372
K5D | -0.0236
K5R | 0.138
D10C | 0.417
E12M | 0.466
P1N | -0.307

Study 4
Target: Interferon regulatory factor 5, full length, phosphomimetic (IRF5, Homo sapiens, UniProt Q13568-2, residues 1-514, S451D/S453D/S456D/S462D)
Method: protein-binding microarray
Molecule type: double-stranded DNA, one strand shown
Medium: in vitro
Concentration: 940 nM top
Setting: 60-bp whole probe
With: salmon DNA 0.4 mg/ml
Relative to: random background probes
Reading: higher = stronger binding
Shared flanks, not repeated: GCCTAGCAC … GTCTTGATTCGCTTGACGCTGCTG
Oligonucleotide | fitted relative affinity [z-score]
GACGGCTTCGGGACTGGGGACGTGCTA | -0.0909
TTAGATTTCAGTCTCAATTAGTGCTAG | 1.56
GACGAACTGAGTTTCGAGCCGTGCTAG | 2.61
GACGGTATCCTACTGCCGACGTGCTAG | 0.348
GACGAACCGAGTTTCGAGACGTGCTAG | 3.43
GACGGTCTCCTGTTCCTGACGTGCTAG | 0.156
GACGAACTGAAACTGGAGACGTGCTAG | 0.536
CTAGGACTGCTACTGCTTTAGTGCTAG | -0.485
GACGATTTCAGTCTCGAAACGTGCTAG | 2.19
TTAGGTTCCCTTTACCTTTAGTGCTAG | 0.5
GACGATTTCGGGACTCGAGACGTGCTA | 0.291
TCATTTATGGTATTTTTACTGTGCTAG | 0.192
TTAGATTTCAGTTTGGATTAGTGCTAG | 0.657
TAGGGACTCAGGTCTCCCTTGGTGCTA | -0.384
GACGAACTGAGTTTCCAGACGTGCTAG | -0.472
TCAGTTCTCCCTTTCAGACTGTGCTAG | 1.05
TTAGATTCAAGTTTCGATTAGTGCTAG | 7.06
TCACTCTTCCTTTACTTACTGTGCTAG | 1.92
TTAGGACTGGGGTTTCGGTTTGTGCTA | 5.11

Excerpt of the above (study 4):
Oligonucleotide | fitted relative affinity [z-score]
TTAGATTTCAGTTTGGATTAGTGCTAG | 0.657
GACGAACTGAGTTTCCAGACGTGCTAG | -0.472
TCATTTATGGTATTTTTACTGTGCTAG | 0.192
GACGATTTCGGGACTCGAGACGTGCTA | 0.291
TCACTCTTCCTTTACTTACTGTGCTAG | 1.92
GACGGCTTCGGGACTGGGGACGTGCTA | -0.0909
TTAGGTTCCCTTTACCTTTAGTGCTAG | 0.5
TTAGATTTCAGTCTCAATTAGTGCTAG | 1.56
